Measurements from different studies.
Lines come from different studies, so protocols differ. “And” joins repeats or separate records; there may be more than shown. ± gives the spread as reported.
folP: Dihydropteroate synthase (folP, Bacteria, UniProt P0AC13)
Chain of UniProt P0AC13 (whole entry, looked up): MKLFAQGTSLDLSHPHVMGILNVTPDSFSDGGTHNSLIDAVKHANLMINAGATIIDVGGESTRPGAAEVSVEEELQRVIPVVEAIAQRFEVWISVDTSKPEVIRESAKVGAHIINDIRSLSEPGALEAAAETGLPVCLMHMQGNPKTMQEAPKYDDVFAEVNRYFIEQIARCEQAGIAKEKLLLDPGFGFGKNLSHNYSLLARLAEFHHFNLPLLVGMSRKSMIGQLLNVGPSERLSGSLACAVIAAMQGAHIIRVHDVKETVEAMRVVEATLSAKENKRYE
Chain of UniProt O94900 (whole entry, looked up): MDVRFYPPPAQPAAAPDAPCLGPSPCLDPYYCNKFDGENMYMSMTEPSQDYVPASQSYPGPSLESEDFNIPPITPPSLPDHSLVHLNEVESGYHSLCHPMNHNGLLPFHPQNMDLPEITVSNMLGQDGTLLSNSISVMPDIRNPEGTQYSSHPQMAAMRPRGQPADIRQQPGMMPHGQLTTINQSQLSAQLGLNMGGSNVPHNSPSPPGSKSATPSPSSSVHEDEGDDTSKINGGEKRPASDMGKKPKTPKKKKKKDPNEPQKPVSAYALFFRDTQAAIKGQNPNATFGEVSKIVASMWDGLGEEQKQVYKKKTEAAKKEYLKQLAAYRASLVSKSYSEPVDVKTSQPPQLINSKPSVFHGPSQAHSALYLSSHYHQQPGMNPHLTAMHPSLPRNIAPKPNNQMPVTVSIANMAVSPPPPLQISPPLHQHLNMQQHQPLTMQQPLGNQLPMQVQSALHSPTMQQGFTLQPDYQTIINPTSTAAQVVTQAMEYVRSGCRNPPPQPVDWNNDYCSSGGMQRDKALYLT
Chain of UniProt P54941 (whole entry, looked up): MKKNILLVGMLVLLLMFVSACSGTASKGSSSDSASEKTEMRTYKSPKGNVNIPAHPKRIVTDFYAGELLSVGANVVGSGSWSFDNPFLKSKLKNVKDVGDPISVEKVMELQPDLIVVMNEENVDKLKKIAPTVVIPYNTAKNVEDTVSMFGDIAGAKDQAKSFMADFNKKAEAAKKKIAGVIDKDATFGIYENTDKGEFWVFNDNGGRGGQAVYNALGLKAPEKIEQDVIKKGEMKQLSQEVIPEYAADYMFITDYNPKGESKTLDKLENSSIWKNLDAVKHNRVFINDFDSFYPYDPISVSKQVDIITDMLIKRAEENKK
Chain of UniProt P35218 (whole entry, looked up): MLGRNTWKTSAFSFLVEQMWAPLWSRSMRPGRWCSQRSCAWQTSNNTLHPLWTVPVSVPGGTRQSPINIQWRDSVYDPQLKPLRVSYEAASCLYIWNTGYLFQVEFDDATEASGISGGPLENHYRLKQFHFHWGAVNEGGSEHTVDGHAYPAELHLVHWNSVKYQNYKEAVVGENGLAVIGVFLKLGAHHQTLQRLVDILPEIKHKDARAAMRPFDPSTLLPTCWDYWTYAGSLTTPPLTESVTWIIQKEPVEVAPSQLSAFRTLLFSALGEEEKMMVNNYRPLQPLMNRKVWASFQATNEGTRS
Chain of UniProt P08138 (whole entry, looked up): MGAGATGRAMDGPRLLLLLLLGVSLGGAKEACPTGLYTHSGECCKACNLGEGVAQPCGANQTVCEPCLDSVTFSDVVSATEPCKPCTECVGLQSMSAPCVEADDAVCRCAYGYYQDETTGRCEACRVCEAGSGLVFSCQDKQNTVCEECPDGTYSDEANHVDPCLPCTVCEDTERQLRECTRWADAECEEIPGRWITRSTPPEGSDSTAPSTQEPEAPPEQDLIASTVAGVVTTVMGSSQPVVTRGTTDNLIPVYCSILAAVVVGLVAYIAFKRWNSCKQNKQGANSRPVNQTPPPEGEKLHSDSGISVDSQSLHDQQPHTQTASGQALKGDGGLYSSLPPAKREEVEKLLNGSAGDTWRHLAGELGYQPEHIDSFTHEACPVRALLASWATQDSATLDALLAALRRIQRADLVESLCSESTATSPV
Chain of UniProt Q8WTQ7 (whole entry, looked up): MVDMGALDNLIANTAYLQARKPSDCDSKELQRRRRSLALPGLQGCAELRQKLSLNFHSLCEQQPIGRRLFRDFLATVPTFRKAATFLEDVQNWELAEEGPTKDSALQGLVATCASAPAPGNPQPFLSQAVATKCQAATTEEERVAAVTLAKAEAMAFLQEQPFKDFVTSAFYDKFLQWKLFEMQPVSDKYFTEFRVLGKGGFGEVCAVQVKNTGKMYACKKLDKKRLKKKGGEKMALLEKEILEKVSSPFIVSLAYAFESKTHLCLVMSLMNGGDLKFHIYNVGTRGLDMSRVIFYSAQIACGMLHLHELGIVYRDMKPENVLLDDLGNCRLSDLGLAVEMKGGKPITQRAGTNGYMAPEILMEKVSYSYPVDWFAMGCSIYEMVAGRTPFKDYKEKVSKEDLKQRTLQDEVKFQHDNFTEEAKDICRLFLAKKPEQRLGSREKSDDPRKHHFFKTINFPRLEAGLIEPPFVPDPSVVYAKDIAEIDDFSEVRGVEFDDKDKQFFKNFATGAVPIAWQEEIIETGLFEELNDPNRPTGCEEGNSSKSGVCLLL
Chain of UniProt P51686 (whole entry, looked up): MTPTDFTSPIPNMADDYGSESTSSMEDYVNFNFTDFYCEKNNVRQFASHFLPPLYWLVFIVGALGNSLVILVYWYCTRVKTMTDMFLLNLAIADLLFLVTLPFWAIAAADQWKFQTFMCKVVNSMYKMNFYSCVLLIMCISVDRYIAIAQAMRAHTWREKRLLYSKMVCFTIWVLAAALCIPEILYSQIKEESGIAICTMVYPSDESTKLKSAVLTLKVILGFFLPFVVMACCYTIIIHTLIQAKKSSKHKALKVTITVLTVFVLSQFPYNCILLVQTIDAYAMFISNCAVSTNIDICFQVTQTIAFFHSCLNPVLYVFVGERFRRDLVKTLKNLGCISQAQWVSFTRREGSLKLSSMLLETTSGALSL
Chain of UniProt P69687 (whole entry, looked up): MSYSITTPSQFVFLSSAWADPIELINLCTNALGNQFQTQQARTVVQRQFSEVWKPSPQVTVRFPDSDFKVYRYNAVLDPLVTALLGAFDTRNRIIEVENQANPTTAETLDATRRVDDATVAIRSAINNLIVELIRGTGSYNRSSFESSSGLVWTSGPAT
Chain of UniProt Q96EB6 (whole entry, looked up): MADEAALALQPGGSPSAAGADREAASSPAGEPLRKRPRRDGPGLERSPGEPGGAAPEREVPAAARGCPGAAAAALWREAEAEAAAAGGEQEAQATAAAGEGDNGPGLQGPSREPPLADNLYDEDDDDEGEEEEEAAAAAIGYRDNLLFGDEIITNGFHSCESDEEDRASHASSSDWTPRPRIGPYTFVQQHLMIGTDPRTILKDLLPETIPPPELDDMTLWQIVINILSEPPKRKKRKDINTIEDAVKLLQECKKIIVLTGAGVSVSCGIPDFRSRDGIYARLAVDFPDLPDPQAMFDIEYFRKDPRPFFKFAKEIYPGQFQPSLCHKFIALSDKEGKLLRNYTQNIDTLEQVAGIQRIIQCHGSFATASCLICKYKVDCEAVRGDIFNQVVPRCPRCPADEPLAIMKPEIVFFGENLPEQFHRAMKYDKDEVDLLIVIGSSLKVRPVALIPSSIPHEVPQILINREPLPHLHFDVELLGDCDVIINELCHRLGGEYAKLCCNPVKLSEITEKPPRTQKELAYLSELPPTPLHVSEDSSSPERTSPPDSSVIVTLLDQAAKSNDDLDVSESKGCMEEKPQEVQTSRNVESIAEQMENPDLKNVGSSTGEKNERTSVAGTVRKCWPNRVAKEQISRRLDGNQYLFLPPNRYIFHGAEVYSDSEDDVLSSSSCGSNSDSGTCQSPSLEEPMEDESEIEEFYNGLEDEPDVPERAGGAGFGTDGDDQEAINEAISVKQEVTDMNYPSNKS
Chain of UniProt Q9Y6M5 (whole entry, looked up): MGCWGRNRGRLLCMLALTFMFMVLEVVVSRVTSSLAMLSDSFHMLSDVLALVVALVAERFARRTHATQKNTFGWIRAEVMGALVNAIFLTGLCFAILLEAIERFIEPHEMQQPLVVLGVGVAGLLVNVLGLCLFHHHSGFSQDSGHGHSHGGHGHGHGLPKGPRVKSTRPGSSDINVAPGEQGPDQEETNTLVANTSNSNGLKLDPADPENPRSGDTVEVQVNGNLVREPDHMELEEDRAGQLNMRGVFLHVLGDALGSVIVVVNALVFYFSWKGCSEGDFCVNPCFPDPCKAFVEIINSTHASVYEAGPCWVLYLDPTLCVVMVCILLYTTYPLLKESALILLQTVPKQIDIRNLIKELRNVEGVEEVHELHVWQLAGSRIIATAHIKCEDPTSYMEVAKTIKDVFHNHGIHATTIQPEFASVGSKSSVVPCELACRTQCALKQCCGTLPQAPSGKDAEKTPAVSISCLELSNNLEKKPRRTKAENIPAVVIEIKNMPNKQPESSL
Chain of UniProt Q13526 (whole entry, looked up): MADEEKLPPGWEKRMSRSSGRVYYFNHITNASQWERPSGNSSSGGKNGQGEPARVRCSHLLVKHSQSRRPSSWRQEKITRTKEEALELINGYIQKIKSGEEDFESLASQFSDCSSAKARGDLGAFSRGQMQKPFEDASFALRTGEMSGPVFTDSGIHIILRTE

SMILES | target | assay | system | setting | Kd
C=CC(=O)N1C[C@H](C)N(c2nc(OC[C@@]34CCCN3C[C@H](F)C4)nc3c(F)c(-c4ccc(F)c5sc(N)c(C#N)c45)c(C(F)(F)F)cc23)C[C@H]1C | GTPase KRas, GDP-bound (KRAS, Homo sapiens, UniProt P01116, G13D) | SPR |  |  | 1.05 ± 0.25 nM
CC(C(=O)O)c1nn(C)c2nc(N)[nH]c(=O)c2c1=O (stereo not shown) | folP | binding, SPR |  |  | 3.5 nM
CC(=O)N(O)CCCCCNC(=O)CCC(=O)N(O)CCCCCNC(=O)CCC(=O)N(O)CCCCCNc1ccc([N+](=O)[O-])c2nonc12 | Iron(3+)-hydroxamate-binding protein YxeB (yxeB, Bacillus subtilis, UniProt P54941) | binding, Trp fluorescence quenching |  | pH 7.4, added: yxeB 100 nM | 48 ± 24 nM
COc1ccc(C(N)=O)c[n+]1C | Nicotinamide N-methyltransferase, SAH-bound (Rattus norvegicus, UniProt A0ABK0M0V0) | binding, surface plasmon resonance |  | 37 °C, added: SAH | 200 nM
CN1CCN(c2ccc3[nH]c(-c4ccc5[nH]c(-c6ccc(OCCCCNC(=O)c7cccc8c7C(=O)OC87c8ccc(N(C)C)cc8C(C)(C)c8cc(N(C)C)ccc87)cc6)nc5c4)nc3c2)CC1 | hairpin DNA | binding, fluorescence titration | PBS | 1 h, room temperature | 1300 ± 100 nM
CC(C)[C@H](NC(=O)[C@@H]1CCCN1C(=O)[C@@H](NC(=O)[C@H](CCCNC(=N)N)NC(=O)[C@@H]1CCCN1C(=O)[C@@H](NC(=O)OCC1c2ccccc2-c2ccccc21)C(C)C)[C@@H](C)OP(=O)(O)O)C(=O)NCC(=O)NCC(=O)NCC(=O)N[C@@H](CCCCN)C(N)=O | Peptidyl-prolyl cis-trans isomerase NIMA-interacting 1, WW domain (PIN1, Homo sapiens, UniProt Q13526) | binding, competitive ELISA |  | pH 7.3 | 36000 ± 4000 nM
Cc1c2ccnc(C(=O)N[C@H](C)CN(C)C)c2cc2c3cc(OCCCN4CCN(C)CC4)ccc3n(C)c12 | r(CGG)16 RNA | binding, microscale thermophoresis |  |  | 1000 ± 192 nM
NCCCC[C@H](NC(=O)[C@H](C/C=C/C[C@H](NC(=O)[C@@H]1CCCN1)C(=O)N[C@@H](CCCCN)C(=O)NCCCN)NC(=O)[C@@H]1CCCN1)C(=O)NCCCN | (CAG)10 RNA | SPR |  |  | 273 nM
NS(=O)(=O)c1cc(C(=O)NCCCC(=O)O)c(NC2CCCCC2)cc1Cl | Carbonic anhydrase 5A, mitochondrial (CA5A, Homo sapiens, UniProt P35218) |  |  | pH 7 | 100000 nM
CN(C)c1ccc2c(-c3cc(C(=O)NCc4cn(CCOCCOCCOc5cc(C(=O)c6cc(Cl)ccc6NS(=O)(=O)c6ccc(C(C)(C)C)cc6)cc[n+]5[O-])nn4)ccc3C(=O)[O-])c3ccc(=[N+](C)C)cc-3oc2c1 | C-C chemokine receptor type 9 (CCR9, Homo sapiens, UniProt P51686) | binder, NanoBRET | HEK293T |  | 55.5 ± 4.1 nM
CCCSC(SCCC)c1ccc(OCCNS(=O)(=O)c2ccccc2C(F)(F)F)c(OC)c1 | CP (Tobacco mosaic virus, UniProt P69687) | binding, MST |  |  | 221000 nM
N#Cc1c(N)nc2c(c1-c1ccc(CO)o1)Cc1cc(O)ccc1-2 | Thymocyte selection-associated high mobility group box protein TOX (Homo sapiens, UniProt O94900) | SPR |  |  | 920 nM and 922 nM
CCCCCCCC[C@H](NC(=O)[C@@H]1CSC([C@@H](N)[C@@H](C)CC)=N1)C(=O)N[C@H](CCC(=O)O)C(=O)N[C@H](C(=O)N[C@H]1CCCCNC(=O)[C@H](CC(N)=O)NC(=O)[C@@H](CC(=O)O)NC(=O)[C@H](Cc2c[nH]cn2)NC(=O)[C@@H](Cc2ccccc2)NC(=O)[C@H]([C@@H](C)CC)NC(=O)[C@@H](CCCN)NC1=O)[C@@H](C)CC | undecaprenyl pyrophosphate | binding, isothermal titration calorimetry | phosphatidylcholine lipid vesicles | pH 7.5, 25 °C, 0.3 mM zinc sulfate | 11.6 ± 9.32 nM
C=C1C(=O)OC2C1CCC(C)(O)C13C=CC(C)(C21)C1(C3)C(=O)OC2C3C(C)C(=O)CC3C(=C)CC(OC(C)=O)C21 (stereo not shown) | NAD-dependent protein deacetylase sirtuin-1 (SIRT1, Homo sapiens, UniProt Q96EB6) | binding, ITC |  |  | 6170 nM
Cn1c2ccc(NC(=O)c3ccccc3)cc2c(=O)n2nc(C(=O)O)cc12 | Tumor necrosis factor receptor superfamily member 16 (Homo sapiens, UniProt P08138) | binding, SPR |  |  | 175 nM
C=CC(=O)N1CC2(CCN(c3nc(OC4CCN(CCCOC)CC4)nc4c(OCC(F)(F)F)c(-c5c(C)ccc6[nH]ncc56)c(C5CC5)cc34)CC2)C1 | GTPase KRas, GDP-bound (KRAS, Homo sapiens, UniProt P01116) | microscale thermophoresis |  |  | 2720 ± 1000 nM
CC1(C)CC[C@]2(C(=O)O[C@@H]3O[C@H](CO)[C@@H](O)[C@H](O)[C@H]3O)CC[C@]3(C)C(=CC[C@@H]4[C@@]5(C)CC[C@H](O[C@@H]6O[C@H](C(=O)O)[C@@H](O)[C@H](O)[C@H]6O[C@@H]6O[C@H](CO)[C@@H](O)[C@H](O)[C@H]6O)C(C)(C)[C@@H]5CC[C@]43C)[C@@H]2C1 | SLC30A1 (Homo sapiens, UniProt Q9Y6M5) | binding |  |  | 28900 nM
COC(=O)CC(C)c1n[nH]c2nc(N)[nH]c(=O)c2c1=O (stereo not shown) | folP | binding, SPR |  |  | 619 nM
Cc1c[nH]c2nccc(-c3ccc(C(=O)N[C@@H]4c5c(F)cc(C(F)F)cc5C[C@@H]4O)cn3)c12 | Rhodopsin kinase GRK7 (GRK7, Homo sapiens, UniProt Q8WTQ7) | binding, competition with immobilised ligand |  |  | 385 nM
CCc1nc2cc3ccccc3cc2cc1C(=O)N1CCC[C@H]1C(=O)N[C@@H](CCC/C=C/CCC[C@H](NC(=O)[C@@H]1CCCN1C(=O)c1cc2cc3ccccc3cc2nc1CC)C(=O)N[C@@H](CCCCN)C(=O)NCCCN)C(=O)N[C@@H](CCCCN)C(=O)NCCCN | (CAG)10 RNA | SPR |  |  | 878 nM
CC(CC(=O)O)c1nn(C)c2nc(N)[nH]c(=O)c2c1=O (stereo not shown) | folP | binding, SPR |  |  | 16.3 nM
CC(CCc1ccccc1)NC(=O)C(=O)NCc1n[nH]c(=O)c2ccccc12 (stereo not shown) | V-type immunoglobulin domain-containing suppressor of T-cell activation (VSIR, Homo sapiens, UniProt Q9H7M9) | binding, MST |  |  | 2130 nM
CCc1nc2cc3ccccc3cc2cc1C(=O)N[C@@H](CCCCN)C(=O)N[C@@H](C/C=C/C[C@H](NC(=O)[C@H](CCCCN)NC(=O)c1cc2cc3ccccc3cc2nc1CC)C(=O)N1CCC[C@H]1C(=O)NCCCN)C(=O)N1CCC[C@H]1C(=O)NCCCN | (CAG)10 RNA | SPR |  |  | 298 nM
Cn1nc(C(=O)O)c(=O)c2c(=O)[nH]c(N)nc21 | folP | binding, SPR |  |  | 7.66 nM
Cn1cncc1C1=CN(c2ncnc3[nH]cnc23)CCS1(=O)=O | cAMP-dependent protein kinase catalytic subunit alpha (PRKACA, Homo sapiens, UniProt P17612) | binding |  |  | > 200000 nM

For quick reference, copied from above:
SMILES | target | assay | system | setting | Kd
COc1ccc(C(N)=O)c[n+]1C | Nicotinamide N-methyltransferase, SAH-bound (Rattus norvegicus, UniProt A0ABK0M0V0) | binding, surface plasmon resonance |  | 37 °C, added: SAH | 200 nM
CN1CCN(c2ccc3[nH]c(-c4ccc5[nH]c(-c6ccc(OCCCCNC(=O)c7cccc8c7C(=O)OC87c8ccc(N(C)C)cc8C(C)(C)c8cc(N(C)C)ccc87)cc6)nc5c4)nc3c2)CC1 | hairpin DNA | binding, fluorescence titration | PBS | 1 h, room temperature | 1300 ± 100 nM
CC(C)[C@H](NC(=O)[C@@H]1CCCN1C(=O)[C@@H](NC(=O)[C@H](CCCNC(=N)N)NC(=O)[C@@H]1CCCN1C(=O)[C@@H](NC(=O)OCC1c2ccccc2-c2ccccc21)C(C)C)[C@@H](C)OP(=O)(O)O)C(=O)NCC(=O)NCC(=O)NCC(=O)N[C@@H](CCCCN)C(N)=O | Peptidyl-prolyl cis-trans isomerase NIMA-interacting 1, WW domain (PIN1, Homo sapiens, UniProt Q13526) | binding, competitive ELISA |  | pH 7.3 | 36000 ± 4000 nM
Cc1c2ccnc(C(=O)N[C@H](C)CN(C)C)c2cc2c3cc(OCCCN4CCN(C)CC4)ccc3n(C)c12 | r(CGG)16 RNA | binding, microscale thermophoresis |  |  | 1000 ± 192 nM
